Results collected from several papers.
Lines come from different studies, so protocols differ. “And” joins repeats or separate records; there may be more than shown. Numbers after ± are the reported error.
ADRA2C: Alpha-2C adrenergic receptor (ADRA2C, Homo sapiens, UniProt P18825)
Sequence of UniProt P18825 (whole entry, looked up): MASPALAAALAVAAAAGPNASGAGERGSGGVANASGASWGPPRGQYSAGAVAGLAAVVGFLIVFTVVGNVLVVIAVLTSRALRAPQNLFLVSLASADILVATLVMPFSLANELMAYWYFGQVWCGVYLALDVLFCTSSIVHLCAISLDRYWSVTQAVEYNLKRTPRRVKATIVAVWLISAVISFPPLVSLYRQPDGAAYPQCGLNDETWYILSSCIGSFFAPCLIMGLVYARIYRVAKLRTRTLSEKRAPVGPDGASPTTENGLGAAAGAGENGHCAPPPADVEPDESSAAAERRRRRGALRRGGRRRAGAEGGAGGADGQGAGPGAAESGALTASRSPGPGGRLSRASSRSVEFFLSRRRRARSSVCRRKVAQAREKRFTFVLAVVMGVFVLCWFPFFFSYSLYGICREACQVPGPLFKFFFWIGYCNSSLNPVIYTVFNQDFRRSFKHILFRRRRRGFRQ
MAL12: Alpha-glucosidase MAL12 (MAL12, Saccharomyces cerevisiae S288c, UniProt P53341)
Sequence of UniProt P53341 (whole entry, looked up): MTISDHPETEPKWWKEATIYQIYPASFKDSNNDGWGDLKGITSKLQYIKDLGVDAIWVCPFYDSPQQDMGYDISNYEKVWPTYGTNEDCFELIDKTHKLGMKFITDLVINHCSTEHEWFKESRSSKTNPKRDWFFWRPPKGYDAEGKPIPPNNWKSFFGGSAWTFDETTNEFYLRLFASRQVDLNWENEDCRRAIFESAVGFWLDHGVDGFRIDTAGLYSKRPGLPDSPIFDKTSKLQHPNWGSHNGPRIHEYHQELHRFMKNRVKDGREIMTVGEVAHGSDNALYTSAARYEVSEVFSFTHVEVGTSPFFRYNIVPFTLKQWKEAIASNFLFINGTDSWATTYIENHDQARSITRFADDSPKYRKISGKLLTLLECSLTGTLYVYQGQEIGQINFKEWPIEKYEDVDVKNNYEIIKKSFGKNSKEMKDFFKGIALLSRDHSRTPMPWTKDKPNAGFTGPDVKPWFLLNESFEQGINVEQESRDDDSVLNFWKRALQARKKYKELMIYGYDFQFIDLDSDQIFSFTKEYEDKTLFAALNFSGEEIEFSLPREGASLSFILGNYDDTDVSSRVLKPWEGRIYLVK
Sequence of UniProt P07237 (whole entry, looked up): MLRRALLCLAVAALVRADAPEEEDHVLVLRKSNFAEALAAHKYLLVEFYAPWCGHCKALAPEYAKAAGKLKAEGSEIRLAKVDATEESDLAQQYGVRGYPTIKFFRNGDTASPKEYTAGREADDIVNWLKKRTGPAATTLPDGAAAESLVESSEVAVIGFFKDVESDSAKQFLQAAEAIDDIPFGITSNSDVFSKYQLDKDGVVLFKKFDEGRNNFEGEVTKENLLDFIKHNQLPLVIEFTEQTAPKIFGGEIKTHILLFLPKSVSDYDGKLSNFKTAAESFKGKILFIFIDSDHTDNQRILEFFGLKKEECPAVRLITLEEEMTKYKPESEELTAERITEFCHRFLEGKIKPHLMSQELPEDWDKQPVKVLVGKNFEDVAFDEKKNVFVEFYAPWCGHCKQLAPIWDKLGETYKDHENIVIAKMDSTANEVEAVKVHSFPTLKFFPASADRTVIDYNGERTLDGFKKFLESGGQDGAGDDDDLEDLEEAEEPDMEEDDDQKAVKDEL
Sequence of UniProt P19327 (whole entry, looked up): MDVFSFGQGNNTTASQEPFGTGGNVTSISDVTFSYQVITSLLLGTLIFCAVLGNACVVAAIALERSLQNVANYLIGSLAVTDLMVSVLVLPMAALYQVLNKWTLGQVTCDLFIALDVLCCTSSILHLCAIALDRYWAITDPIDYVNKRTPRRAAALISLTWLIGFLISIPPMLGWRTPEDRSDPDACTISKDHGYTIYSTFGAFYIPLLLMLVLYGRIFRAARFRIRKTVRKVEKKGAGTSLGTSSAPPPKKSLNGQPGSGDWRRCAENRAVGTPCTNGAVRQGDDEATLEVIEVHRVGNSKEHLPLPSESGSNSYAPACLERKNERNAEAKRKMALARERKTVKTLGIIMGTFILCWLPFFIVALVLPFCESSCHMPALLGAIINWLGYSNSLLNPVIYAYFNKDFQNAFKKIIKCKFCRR
Sequence of UniProt P28565 (whole entry, looked up): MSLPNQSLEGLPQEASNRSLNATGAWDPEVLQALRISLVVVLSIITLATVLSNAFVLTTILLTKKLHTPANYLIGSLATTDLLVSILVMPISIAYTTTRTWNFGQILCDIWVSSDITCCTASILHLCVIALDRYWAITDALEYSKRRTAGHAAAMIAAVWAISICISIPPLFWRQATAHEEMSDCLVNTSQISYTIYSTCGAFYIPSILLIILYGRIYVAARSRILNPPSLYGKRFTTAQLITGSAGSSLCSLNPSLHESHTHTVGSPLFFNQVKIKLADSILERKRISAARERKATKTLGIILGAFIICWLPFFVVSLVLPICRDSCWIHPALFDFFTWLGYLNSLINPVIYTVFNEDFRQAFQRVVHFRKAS
Sequence of UniProt Q05941 (whole entry, looked up): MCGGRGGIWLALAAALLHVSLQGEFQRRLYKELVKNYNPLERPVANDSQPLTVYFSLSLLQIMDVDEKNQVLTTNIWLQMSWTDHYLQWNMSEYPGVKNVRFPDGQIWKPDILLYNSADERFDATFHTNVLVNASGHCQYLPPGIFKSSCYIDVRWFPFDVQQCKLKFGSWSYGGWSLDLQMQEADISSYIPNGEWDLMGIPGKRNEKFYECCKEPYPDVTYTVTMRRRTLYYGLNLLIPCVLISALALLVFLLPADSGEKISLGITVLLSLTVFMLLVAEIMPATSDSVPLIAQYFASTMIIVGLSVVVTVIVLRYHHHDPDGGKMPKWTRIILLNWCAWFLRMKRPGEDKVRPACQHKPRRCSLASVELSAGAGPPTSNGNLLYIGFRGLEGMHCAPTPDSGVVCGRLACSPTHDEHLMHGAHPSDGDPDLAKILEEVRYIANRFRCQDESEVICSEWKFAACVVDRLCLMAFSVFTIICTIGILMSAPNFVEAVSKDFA
Sequence of UniProt P46663 (whole entry, looked up): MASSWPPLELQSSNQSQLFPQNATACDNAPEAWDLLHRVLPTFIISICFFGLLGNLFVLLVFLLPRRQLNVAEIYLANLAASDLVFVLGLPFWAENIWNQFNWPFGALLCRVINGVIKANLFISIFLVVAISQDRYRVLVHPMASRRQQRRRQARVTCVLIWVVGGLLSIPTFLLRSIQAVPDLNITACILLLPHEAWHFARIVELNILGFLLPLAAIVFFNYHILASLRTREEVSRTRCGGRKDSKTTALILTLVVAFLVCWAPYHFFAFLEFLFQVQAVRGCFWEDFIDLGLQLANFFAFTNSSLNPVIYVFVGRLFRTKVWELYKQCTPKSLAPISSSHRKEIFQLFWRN
Sequence of UniProt Q15418 (whole entry, looked up): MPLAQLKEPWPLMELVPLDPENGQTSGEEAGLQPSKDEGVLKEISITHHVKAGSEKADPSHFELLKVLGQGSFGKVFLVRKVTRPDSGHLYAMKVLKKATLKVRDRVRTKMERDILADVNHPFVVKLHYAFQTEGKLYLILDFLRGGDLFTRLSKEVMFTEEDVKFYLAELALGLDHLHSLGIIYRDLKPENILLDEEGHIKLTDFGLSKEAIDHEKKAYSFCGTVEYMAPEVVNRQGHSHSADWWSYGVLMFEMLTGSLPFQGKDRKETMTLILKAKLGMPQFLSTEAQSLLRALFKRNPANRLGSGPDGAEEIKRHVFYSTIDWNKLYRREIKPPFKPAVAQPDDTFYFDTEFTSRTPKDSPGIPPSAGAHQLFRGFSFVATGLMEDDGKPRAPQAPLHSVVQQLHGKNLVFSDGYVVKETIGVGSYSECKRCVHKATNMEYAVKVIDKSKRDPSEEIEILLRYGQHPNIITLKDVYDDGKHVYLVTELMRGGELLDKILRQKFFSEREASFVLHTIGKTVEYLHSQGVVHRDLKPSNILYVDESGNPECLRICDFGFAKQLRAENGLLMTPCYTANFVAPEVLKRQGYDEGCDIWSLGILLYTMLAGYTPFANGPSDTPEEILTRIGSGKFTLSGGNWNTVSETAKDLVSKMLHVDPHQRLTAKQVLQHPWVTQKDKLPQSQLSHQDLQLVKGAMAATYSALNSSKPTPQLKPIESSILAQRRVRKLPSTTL
Sequence of UniProt O43169 (whole entry, looked up): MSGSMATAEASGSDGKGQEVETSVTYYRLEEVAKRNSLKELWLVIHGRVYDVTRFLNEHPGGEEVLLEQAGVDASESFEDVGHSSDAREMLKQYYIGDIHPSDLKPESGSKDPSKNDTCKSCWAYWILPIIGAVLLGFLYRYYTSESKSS
Sequence of UniProt P05067 (whole entry, looked up): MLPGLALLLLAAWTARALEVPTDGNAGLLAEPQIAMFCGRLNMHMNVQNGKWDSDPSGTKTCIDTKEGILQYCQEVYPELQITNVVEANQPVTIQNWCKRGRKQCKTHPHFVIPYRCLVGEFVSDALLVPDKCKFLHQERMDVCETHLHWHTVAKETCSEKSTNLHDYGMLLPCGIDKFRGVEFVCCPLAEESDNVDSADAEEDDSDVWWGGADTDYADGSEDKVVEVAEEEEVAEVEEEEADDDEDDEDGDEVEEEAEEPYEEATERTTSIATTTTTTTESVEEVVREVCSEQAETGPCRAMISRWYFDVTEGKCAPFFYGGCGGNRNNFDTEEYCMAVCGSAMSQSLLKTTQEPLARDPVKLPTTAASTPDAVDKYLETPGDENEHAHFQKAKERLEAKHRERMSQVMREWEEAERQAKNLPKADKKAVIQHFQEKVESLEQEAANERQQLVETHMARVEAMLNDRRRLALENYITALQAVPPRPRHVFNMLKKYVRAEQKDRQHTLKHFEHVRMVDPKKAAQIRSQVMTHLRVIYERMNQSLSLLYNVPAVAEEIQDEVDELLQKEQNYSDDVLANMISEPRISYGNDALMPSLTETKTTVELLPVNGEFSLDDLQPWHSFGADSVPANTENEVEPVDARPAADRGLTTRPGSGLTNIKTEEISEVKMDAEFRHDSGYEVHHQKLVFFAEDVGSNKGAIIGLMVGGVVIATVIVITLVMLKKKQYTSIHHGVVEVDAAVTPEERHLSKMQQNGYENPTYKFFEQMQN

O=S(=O)(O)c1cc[c]([Hg][Cl])cc1 — inhibition (rat aminopeptidase III (NAP-2); enzyme activity; 20 µM): 95%
CCCC[C@@H](NC(=O)[C@@H](N)Cc1ccc(O)cc1)C(=O)NCC(=O)N[C@@H](Cc1ccc(F)cc1)C(=O)N(C)CCC[C@@]1(c2ccc(F)cc2)OCc2cc(C#N)ccc21 — inhibition (ADRA2C; 10 µM): < 50%
CC(C)C[C@H](NC(=O)[C@H](Cc1ccccc1)NC(=O)c1cnccn1)B(O)O — inhibition (Brain-specific serine protease 4 (PRSS22, Homo sapiens, UniProt Q9GZN4); enzyme activity, inhibitor; 33 µM): 44.4%
COc1cc(Nc2ncc(F)c(Nc3ccc4c(n3)NC(=O)C(C)(C)O4)n2)cc(OC)c1OC — inhibition (Calcium/calmodulin-dependent protein kinase type II subunit alpha (CAMK2A, Homo sapiens, UniProt Q9UQM7); KINOMEscan; 10 µM): 62%
NNCCc1c[nH]c2ccccc12 — inhibition (Cytochrome b5 type B (CYB5B, Homo sapiens, UniProt O43169); MS-based ABPP-SILAC; HEK-293T lysate; 1 µM): inhibited
CC[C@H](C)[C@H](NC(=O)[C@@H](NC(=O)[C@H](N)Cc1ccccc1)C(C)C)C(=O)N[C@@H](C)C(N)=O — inhibition (Amyloid-beta precursor protein (APP, Homo sapiens, UniProt P05067); amyloid-beta aggregation, thioflavin T fluorescence; 2.0 µM, 168 h, added: 2 µM amyloid-beta): 65.4%
FC(F)(F)c1cccc(Nc2nc(NCCOc3ccccc3)nc3[nH]cnc23)c1 — inhibition (Casein kinase II subunit alpha' (CSNK2A2, Homo sapiens, UniProt P19784); Z'-LYTE or Adapta; 5 µM): 5%
c1ccc(C(NCCNC(c2ccccc2)c2ccccc2)c2ccccc2)cc1 — inhibition (Progesterone receptor (PGR, Homo sapiens, UniProt P06401); activity; 10 µM, Eurofins selectivity panel): 65%
COCc1c(-c2cc3cc(C)cc(OC)c3s2)c2c(N)ncnn2c1CN1CCNC(=O)C1 — inhibition (kainate receptor; radioligand binding; 10 µM): 3%
CN1C(=S)N(c2ccccc2)C(=O)/C1=C1/C(=O)N(C)c2ccc(Cl)cc21 — inhibition (MAL12; enzyme activity; 25 µM, added: pNPG): 12.2%
O=C1O[C@H]2[C@@H]3OC(=O)c4cc(O)c(O)c(O)c4-c4c(O)c(O)c5oc(=O)c6c(c(O)c(O)c7oc(=O)c4c5c76)-c4c(cc(O)c(O)c4O)C(=O)OC[C@H]3OC(O)[C@@H]2OC(=O)c2cc(O)c(O)c(O)c2-c2c1cc(O)c(O)c2O (mixture of isomers) — inhibition (Protein disulfide-isomerase, a' domain (P4HB, Homo sapiens, UniProt P07237); di-eosin-GSSG reductase activity; isolated a' domain; 20 µM): inhibited
CN1CCN(c2cc(-c3ccncc3)c(-c3ccc4ccccc4c3)nn2)CC1 — inhibition (ADRA2C; antagonist, FLIPR; 10 µM): 12%
O=C(Nc1cnccc1Cl)N1CCN(Cc2ccc3c(c2)OC(F)(F)O3)CC1 — inhibition (Abhydrolase domain-containing protein 11 (Rattus norvegicus, UniProt D3ZXK4); probe labelling, inhibitor, competitive ABPP with azido-FP probe, measured: Abhd11; rat brain membrane fraction; 10 µM): 99%
Cn1cccc1-c1cccnc1 — inhibition (Histamine H1 receptor (HRH1, Homo sapiens, UniProt P35367); binding; 50 µM): -1.93%
O=C1OC(c2ccc(O)c(S(=O)(=O)O)c2)(c2ccc(O)c(S(=O)(=O)O)c2)c2c(Br)c(Br)c(Br)c(Br)c21 — inhibition (Hepatic sodium/bile acid cotransporter (SLC10A1, Homo sapiens, UniProt Q14973); uptake, bile acid, sodium-independent, inhibitor; HepG2-hNTCP-C4; up to 100 µM, sodium-free, added: [3H]-taurocholic acid): no effect
CN1CCN(c2nc(N)c3ccccc3n2)CC1 — inhibition (5-hydroxytryptamine receptor 1D (Htr1d, Rattus norvegicus, UniProt P28565); radioligand binding, radioligand competition binding; rat; 0.1 µM, mean of two; reference: control specific binding): 3.3%
CN(C(=O)n1cnc(-c2ccc[n+]([O-])c2)c1)C1CCCCC1 — inhibition (Apelin receptor (APLNR, Homo sapiens, UniProt P35414); radioligand binding; 50 µM): 11%
C[C@H]1N=C(c2ccccc2F)c2cc(Br)ccc2-n2cnc(C(=O)O)c21 — inhibition (rat benzodiazepine site; binding; rat brain; 10 µM, added: [3H]flunitrazepam): 91.9 ± 3.5%
CC(C)N1CCC[C@H]1CNC(=O)c1cn(C2CCCC2)c(=O)c2c1c1ccccc1n2C — inhibition (Glutamate receptor ionotropic, NMDA 1 (Grin1, Rattus norvegicus, UniProt P35439); radioligand binding; rat; 10 µM): -2%
COc1ccc2[nH]c3c(c2c1)CCN(C)CC3 — inhibition (Neuronal acetylcholine receptor subunit alpha-7 (Chrna7, Rattus norvegicus, UniProt Q05941); ACh-evoked current, antagonist, two-electrode voltage clamp; Xenopus laevis oocytes; 10 µM, holding potential -40 mV, added: 100 µM acetylcholine): 21.2 ± 7.3%
NCCc1c[nH]c2ccc(O)cc12 — inhibition (5-hydroxytryptamine receptor 1A (Htr1a, Rattus norvegicus, UniProt P19327); radioligand binding; rat; 10 µM): 99.5%
CC[C@H](C)[C@@H]1NC(=O)[C@H](Cc2ccc(O)cc2)NC(=O)[C@H](CC(=O)O)NC(=O)CCc2cccc3c2Oc2c(cccc2-3)CCNC(=O)[C@H](CC(=O)O)NC(=O)[C@H](CC(=O)O)NC(=O)[C@H](CCCCN)NC1=O — inhibition (Lymphocyte function-associated antigen 3 (CD58, Homo sapiens, UniProt P19256); antibody binding, flow cytometry; Caco-2; 200 µM, 30 min, 4 °C): ~85%
CCc1cc(=O)[nH]c(-n2nc(C)cc2NC(=O)c2cc(C)ccc2F)n1 — inhibition (Vascular endothelial growth factor receptor 2 (KDR, Homo sapiens, UniProt P35968); radiometric kinase; 10 µM): no inhibition
CN(CCN1CCC(OC(=O)Nc2ccccc2-c2ccccc2)CC1)C(=O)c1ccc(CN2CCC(C(N)=O)CC2)cc1 — inhibition (phosphodiesterase III; enzyme activity; 1 µM): 10%
O=C(Nc1cccnn1)N1CCC(=Cc2cccc(Oc3ccc(C(F)(F)F)cn3)c2)CC1 — inhibition (B1 bradykinin receptor (BDKRB1, Homo sapiens, UniProt P46663); binding; 50 µM, added: [3H][des-Arg10]kallidin): 14%
Cc1ncc(C)n2nc(/C=C/c3nc(N4CCCC4)cc(N4CCOCC4)n3)nc12 — inhibition (kainate receptor; binding; 10 µM): 1%
COc1ccc(N2C(=O)N(c3c(C)cccc3Cl)Cc3cnc(Nc4ccc(C5CCN(C)CC5)cc4OC)nc32)nc1 — inhibition (Ribosomal protein S6 kinase alpha-1 (RPS6KA1, Homo sapiens, UniProt Q15418); kinase activity, inhibitor; 0.5 µM, kinase RSK1): 11%
NNC(=O)c1ccncc1 — inhibition (Gag-Pol polyprotein, integrase with LEDGF/p75 (gag-pol, Human immunodeficiency virus 1, UniProt P12497); LEDGF/p75 binding, inhibitor, AlphaScreen; HIV-1; 1000 µM): no inhibition
CCc1ccc(N2C(=O)/C(=C3/C(=O)N(C)c4ccc(Cl)cc43)NC2=S)cc1 — inhibition (MAL12; enzyme activity; 100 µM, added: pNPG): 41.8% and 42.2%
O=C(O[C@@H]1Cc2c(O)cc(O)cc2O[C@@H]1c1cc(=O)c(O)c2c(O)c(O)cc([C@H]3Oc4cc(O)cc(O)c4C[C@H]3O)c2c1)c1cc(O)c(O)c(O)c1 — inhibition (Protein disulfide-isomerase (P4HB, Homo sapiens, UniProt P07237); di-eosin-GSSG reductase activity; 20 µM, 15 min): inhibited

Excerpt of the above:
c1ccc(C(NCCNC(c2ccccc2)c2ccccc2)c2ccccc2)cc1 — inhibition (Progesterone receptor (PGR, Homo sapiens, UniProt P06401); activity; 10 µM, Eurofins selectivity panel): 65%
CC(C)N1CCC[C@H]1CNC(=O)c1cn(C2CCCC2)c(=O)c2c1c1ccccc1n2C — inhibition (Glutamate receptor ionotropic, NMDA 1 (Grin1, Rattus norvegicus, UniProt P35439); radioligand binding; rat; 10 µM): -2%
O=C(Nc1cccnn1)N1CCC(=Cc2cccc(Oc3ccc(C(F)(F)F)cn3)c2)CC1 — inhibition (B1 bradykinin receptor (BDKRB1, Homo sapiens, UniProt P46663); binding; 50 µM, added: [3H][des-Arg10]kallidin): 14%
